{"data": "Results pooled from the literature", "note": "A part holds a random share of what one study measured."}
{"data": "Set 1", "target": "Fragile X messenger ribonucleoprotein 1, C-terminal low-complexity region (Fmr1, Mus musculus, UniProt P35922)", "method": "RNA Bind-n-Seq", "form": "RNA", "sample": "in vitro", "tested at": "200 nM", "setting": "whole 134-nt RNA, ends assumed", "together with": "150 mM LiCl", "reference": "input library", "direction": "higher = stronger binding", "library": "7-deaza-guanosine replaces G"}
{"Strand": "GGGAGUUCUACAGUCCGACGAUCAGUCCUGUGCUACACAUCGUAUGUACCGAAUCGGGGAAAAAGGGGAAAGGGGUGGGGAAAGUAUUAUGUUACGCCGUUCGGAUCUGCACUUGGAAUUCUCGGGUGUCAAGG", "log2 enrichment": -0.392}
{"Strand": "GGGAGUUCUACAGUCCGACGAUCAAGUCCUGUGCUACACAUCGUAUGUACCGAAUCGGGUUUUUGGGAGGGUUUUUGGGAAAGUAUUAUGUUACGCCGUUCGGAUCUGCACUUUGGAAUUCUCGGGUGUCAAGG", "log2 enrichment": -1.24}
{"Strand": "GGGAGUUCUACAGUCCGACGAUCUCCUCAAGUCCUGUGCUACACAUCGUAUGUACCGAAUCGGCGGCGGGCGGGGAAAGUAUUAUGUUACGCCGUUCGGAUCUGCACUUCCAGUGGAAUUCUCGGGUGUCAAGG", "log2 enrichment": 0.975}
{"data": "Set 2", "target": "Interferon regulatory factor 7, full length, phosphomimetic (IRF7, Homo sapiens, UniProt Q92985, residues 1-503, S471D/S472D/S475D/S476D/S477D/S483D/S484D/S487D)", "method": "protein-binding microarray", "form": "double-stranded DNA, one strand shown", "sample": "in vitro", "tested at": "2200 nM top", "setting": "60-bp whole probe", "together with": "salmon DNA 0.4 mg/ml", "reference": "random background probes", "direction": "higher = stronger binding", "all sequences stand within": "GCCTAGCAC … GTCTTGATTCGCTTGACGCTGCTG", "UniProt Q92985, sequence (whole entry, unmodified, looked up)": "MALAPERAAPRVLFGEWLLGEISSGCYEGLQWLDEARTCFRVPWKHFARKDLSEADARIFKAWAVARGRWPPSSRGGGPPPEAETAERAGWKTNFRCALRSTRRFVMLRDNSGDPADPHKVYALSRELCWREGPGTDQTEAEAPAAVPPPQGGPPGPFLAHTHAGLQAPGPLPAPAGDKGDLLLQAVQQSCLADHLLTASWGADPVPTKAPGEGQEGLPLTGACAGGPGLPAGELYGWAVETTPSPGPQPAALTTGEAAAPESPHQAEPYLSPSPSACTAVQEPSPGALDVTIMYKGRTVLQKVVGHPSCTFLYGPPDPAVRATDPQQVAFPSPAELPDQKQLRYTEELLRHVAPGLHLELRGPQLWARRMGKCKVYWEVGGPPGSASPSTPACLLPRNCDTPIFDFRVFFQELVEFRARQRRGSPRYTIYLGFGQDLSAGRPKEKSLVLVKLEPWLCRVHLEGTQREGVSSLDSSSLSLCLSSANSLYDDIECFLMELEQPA"}
{"Strand": "GACAGTTTCGACACTGGGGACGTGCTA", "fitted relative affinity [z-score]": 3.96}
{"Strand": "TTACGTATCCTTTTCCTTTAGTGCTAG", "fitted relative affinity [z-score]": 3.4}
{"Strand": "TCAGTCATCGATTTCTTACTGTGCTAG", "fitted relative affinity [z-score]": 1.27}
{"Strand": "GGAGGCTCTTGCTACTGAAGGTGCTAG", "fitted relative affinity [z-score]": -0.828}
{"Strand": "GACGGCCTGGGTTTCGGGACGTGCTAG", "fitted relative affinity [z-score]": 0.705}
{"data": "Set 3", "target": "Sal-like protein 4, full length isoform B (SALL4, Homo sapiens, UniProt Q9UJQ4-2, residues 1-616)", "method": "universal PBM", "form": "double-stranded DNA, one strand shown", "sample": "in vitro", "tested at": "not given", "setting": "8-mer, flanks averaged, mean of replicates", "direction": "higher = stronger binding"}
{"Strand": "AAACTTTG", "E-score": 0.151}
{"Strand": "CCGAGTCG", "E-score": -0.312}
{"Strand": "AATTTGAA", "E-score": 0.271}
{"Strand": "ACTAGTTC", "E-score": 0.145}
{"Strand": "GATCCAGC", "E-score": -0.305}
{"data": "Other studies, line by line"}
{"Molecule": "PhoQ, residues 284 288 289 292 302 303 ASHLAV", "target": "PhoP, residues 12 14 15 18 19 NQAHL (Escherichia coli, UniProt P23836)", "assay": "Sort-seq, item: YFP reporter", "system": "E. coli", "setting": "PhoQ-PhoP variant library, together with: 10 µM Mg2+", "how to read": "reference: high Mg2+ state, higher = stronger signaling", "endpoint": "fold induction", "result": 1.19}
